Experimental data gathered from unrelated publications.
± gives the spread as reported.

SMILES | test | system | conditions | Tmax [h]
CC[C@@H]1C[C@]1(NC(=O)[C@@H]1C[C@@]2(CN1C(=O)[C@@H](NC(=O)[C@@H](NC(=O)[C@@H]1CCCCN1C(C)C)C1CCCCC1)C(C)(C)C)C(C)(C)C21CCC1)C(=O)NS(=O)(=O)N1CCCC1 | – | human, fasted, plasma | oral, 100 mg, single dose, median | ~1
CC(C)C[C@@H](NC(=O)[C@@H](Cc1ccccc1)NC(=O)[C@H](N)Cc1ccccc1)C(=O)N[C@H](CCCCN)C(=O)N1CCC(N)(C(=O)O)CC1 | – | human, plasma | intravenous, 5 µg/kg | 0.1
CSCC[C@H](NC(=O)[C@H](CO)NC(=O)[C@H](Cc1ccc(O)cc1)NC(=O)[C@@H](N)CO)C(=O)N[C@@H](CCC(=O)O)C(=O)N[C@@H](Cc1c[nH]cn1)C(=O)N[C@@H](Cc1ccccc1)C(=O)N[C@@H](CCCNC(=N)N)C(=O)N[C@@H](Cc1c[nH]c2ccccc12)C(=O)NCC(=O)N[C@@H](CCCCN)C(=O)N1CCC[C@H]1C(=O)N[C@H](C(=O)NCC(=O)N[C@@H](CCCCN)C(=O)N[C@@H](CCCCN)C(=O)N[C@@H](CCCNC(=N)N)C(=O)N[C@@H](CCCNC(=N)N)C(=O)N1CCC[C@H]1C(=O)N[C@H](C(=O)N[C@@H](CCCCN)C(=O)N[C@H](C(=O)N[C@@H](Cc1ccc(O)cc1)C(=O)N1CCC[C@H]1C(=O)N[C@@H](CC(=O)O)C(=O)NCC(=O)N[C@@H](C)C(=O)N[C@@H](CCC(=O)O)C(=O)N[C@@H](CC(=O)O)C(=O)N[C@@H](CCC(=O)O)C(=O)N[C@@H](CC(C)C)C(=O)N[C@@H](C)C(=O)N[C@@H](CCC(=O)O)C(=O)N[C@@H](C)C(=O)N[C@@H](Cc1ccccc1)C(=O)N1CCC[C@H]1C(=O)N[C@@H](CC(C)C)C(=O)N[C@@H](CCC(=O)O)C(=O)N[C@@H](Cc1ccccc1)C(=O)O)C(C)C)C(C)C)C(C)C | – | human, plasma | subcutaneous, RCI 80 IU, day 1, after first dose | 1
C[C@@H]1CC[C@H]2[C@@H](C)CO[C@@H]3O[C@@]4(C)CC[C@@H]1[C@]32OO4 | – | male Sprague-Dawley rat, plasma | oral, 100 mg/kg | 0.139
CC(=CCC(O)C(C)=Cc1csc(C)n1)CC=CC(C)C(O)C(C)C(=O)C(C)(C)C(O)CC(=O)O (centres unmarked) | – | human, plasma | intravenous infusion, 27 mg/m2 KOS-1584, 3 h infusion, cycle 1 | 3.65 ± 0.4
CC(C)C[C@@H](N)C(=O)NCC(=O)N[C@H](C)C(=O)N[C@H](CO)C(=O)N[C@H](Cc1c[nH]c2ccccc12)C(=O)N[C@H](Cc1c[nH]cn1)C(=O)N[C@H](CCCNC(=N)N)C(=O)N1CCC[C@@H]1C(=O)N[C@H](CC(=O)O)C(=O)N[C@H](CCCCN)C(=O)N[C@H](CS)C(=O)N[C@H](CS)C(=O)N[C@H](CC(C)C)C(=O)NCC(=O)N[C@H](Cc1ccc(O)cc1)C(=O)N[C@H](CCC(N)=O)C(=O)N[C@H](CCCCN)C(=O)N[C@H](CCCNC(=N)N)C(=O)N1CCC[C@@H]1C(=O)N[C@H](CC(C)C)C(=O)N1CCC[C@@H]1C(N)=O | – | male Sprague-Dawley rat, plasma | subcutaneous, 10 mg/kg, single dose | 0.83
Cc1cc(Nc2nc(C[C@@]3(C(=O)O)CCN(Cc4cccc(Cl)c4F)[C@H](C)C3)cc(C)c2F)n[nH]1 | – | Sprague-Dawley rat, plasma | oral, 0.5 mg/kg, single dose | 1.17
CCc1c2c(nc3ccc(OC4OC(C(=O)O)C(O)C(O)C4O)cc13)-c1cc3c(c(=O)n1C2)COC(=O)C3(O)CC (centres unmarked) | – | human patients, plasma | intravenous, 100 mg/m^2 of parent drug | 7.36
Cc1ccc2c(n1)c(-c1cccc(S(C)(=O)=O)c1)c(C)n2C/C(F)=C/CN | – | male Wistar rat, plasma | oral, 10 mg/kg, single dose | ~3
CCCCCCCC/C=C\CCCCCCCCOP(O)(O)=S.N | – | mouse, male, nonirradiated | sc, dose not given | 0.5
N#CC1(c2ccc3c(N)ncnn23)OC(COP(=O)(O)OP(=O)(O)OP(=O)(O)O)C(O)C1O (centres unmarked) | LC-MS/MS | CD-1 mouse male, kidney | oral, 100 mg/kg of remdesivir | 2

Excerpt of the above:
SMILES | test | system | conditions | Tmax [h]
CC(C)C[C@@H](NC(=O)[C@@H](Cc1ccccc1)NC(=O)[C@H](N)Cc1ccccc1)C(=O)N[C@H](CCCCN)C(=O)N1CCC(N)(C(=O)O)CC1 | – | human, plasma | intravenous, 5 µg/kg | 0.1
